{"data": "Measured values from different studies", "note": "Lines come from different studies, so protocols differ. ± gives the spread as reported."}
{"SMILES": "C[C@H](O)[C@@H](NC(=O)[C@H]1CCCN1C(=O)[C@@H](CCCCN)NC(=O)[C@@H](CO)NC(=O)[C@@H](Cc1ccc(O)cc1)NC(=O)[C@@H](CC(N)=O)NC(=O)CCOCCOCCOCCNC(=O)CN1CCN(CC(=O)O)CCN(CC(=O)O)CCN(CC(=O)O)CC1)C(=O)N[C@H](CC(=O)O)C(=O)N[C@H](CCCNC(=N)N)C(=O)N[C@H](CCC(N)=O)C(=O)N[C@H](Cc1ccc(O)cc1)C(=O)N[C@H](Cc1c[nH]cn1)C(=O)N[C@H](Cc1ccccc1)C(N)=O [gallium-68 labelled]", "test system": "BALB/c nude mice U-87 MG tumour, fat", "conditions": "intravenous, 1.85 MBq, 1 h, radiolabelled", "tissue uptake [%ID/g]": "0.27 ± 0.07"}
{"SMILES": "CCCC[C@H]1C(=O)N(C)[C@@H](CCCC)C(=O)N[C@@H](CCCNC(=O)CN2CCN(CC(=O)O)CCN(CC(=O)O)CCN(CC(=O)O)CC2)C(=O)N[C@H](C(=O)NCC(N)=O)CSCC(=O)N[C@@H](Cc2ccc(O)cc2)C(=O)N(C)[C@@H](C)C(=O)N[C@@H](CC(N)=O)C(=O)N2CCC[C@H]2C(=O)N[C@@H](Cc2c[nH]cn2)C(=O)N[C@@H](CC(C)C)C(=O)N(C)CC(=O)N[C@@H](Cc2c[nH]c3ccccc23)C(=O)N[C@@H](CO)C(=O)N[C@@H](Cc2c[nH]c3ccccc23)C(=O)N1C [gallium-68 labelled]", "test system": "NOD/SCID mice, CHO-hPD-L1 xenograft, stomach", "conditions": "60 min, atezolizumab 10 mg/kg pretreatment", "tissue uptake [%ID/g]": "2.77 ± 0.45"}
{"SMILES": "CC[C@H](C)[C@H](NC(=O)[C@H](CCCNC(=N)N)NC(=O)[C@H](CCCCN)NC(=O)[C@H](Cc1ccc(O)cc1)NC(=O)[C@H](CC(=O)O)NC(=O)[C@H](C)NC(=O)CNC(=O)CCOCCOCCOCCNC(=O)CN1CCN(CC(=O)O)CCN(CC(=O)O)CCN(CC(=O)O)CC1)C(=O)N[C@H](C(=O)N[C@@H](CC(C)C)C(=O)N[C@@H](CCCCN)C(=O)N[C@H](C(=O)N[C@@H](CC(N)=O)C(N)=O)C(C)C)[C@@H](C)O [copper-64 labelled]", "test": "ex vivo gamma counting", "test system": "C57BL/6J male mice, B16-F10 tumour, thymus", "conditions": "intravenous, 1.85 MBq, 20 min", "tissue uptake [%ID/g]": "0.802 ± 0.288"}
{"SMILES": "CC(C)C[C@@H](NC(=O)[C@@H](CCCNC(=N)N)NC(=O)[C@@H](Cc1c[nH]cn1)NC(=O)[C@@H](Cc1c[nH]c2ccccc12)NC(=O)[C@@H](Cc1c[nH]cn1)NC(=O)[C@@H](Cc1ccccc1)NC(=O)[C@H](NC(=O)[C@@H](Cc1ccc(O)cc1)NC(=O)CNC(=O)CNC(=O)CCOCCOCCOCCNC(=O)CN1CCN(CC(=O)O)CCN(CC(=O)O)CC1)[C@H](C)O)C(=O)N[C@H](CC(N)=O)C(=O)N1CCC[C@@H]1C(=O)O [gallium-68 labelled]", "test": "gamma counting", "test system": "C57BL/6 mice, male, pancreas", "conditions": "intravenous, 1.85 MBq, 60 min", "tissue uptake [%ID/g]": "0.55 ± 0.31"}
{"SMILES": "CC[C@H](C)[C@H](NC(=O)[C@H](CCCNC(=N)N)NC(=O)[C@H](CCCCN)NC(=O)[C@H](Cc1ccc(O)cc1)NC(=O)[C@H](CC(=O)O)NC(=O)[C@H](C)NC(=O)CNC(=O)CCOCCOCCOCCNC(=O)CN1CCN(CC(=O)O)CCN(CC(=O)O)CCN(CC(=O)O)CC1)C(=O)N[C@H](C(=O)N[C@H](C(=O)N[C@@H](CCCCN)C(=O)N[C@H](C(=O)N[C@@H](CC(N)=O)C(N)=O)C(C)C)C(C)C)[C@@H](C)O [copper-64 labelled]", "test": "ex vivo gamma counting", "test system": "C57BL/6J male mice, B16-F10 tumour, bone", "conditions": "intravenous, 1.85 MBq, 40 min", "tissue uptake [%ID/g]": "0.763 ± 0.086"}
{"SMILES": "CC[C@H](C)[C@H](NC(=O)[C@@H](Cc1c[nH]c2ccccc12)NC(=O)[C@@H]1CCCN1C(=O)[C@H](CCCCN)NC(=O)[C@H](CCCCN)NC(=O)CCNC(=O)CCNC(=O)CN1CCN(CC(=O)O)CCN(CC(=O)O)CCN(CC(=O)O)CC1)C(=O)N[C@@H](C[Si](C)(C)C)C(=O)O [gallium-68 labelled]", "test": "ex vivo biodistribution", "test system": "nude mice, HT-29 xenograft, bone", "conditions": "90 min, added: levocabastine 0.5 µmol", "tissue uptake [%ID/g]": "0.61 ± 0.3"}
{"SMILES": "CSCC[C@H](NC(=O)CNC(=O)[C@H](CCCCN)NC(=O)[C@H](CC(C)C)NC(=O)[C@@H]1CCCN1C(=O)[C@H](CO)NC(=O)[C@H](Cc1c[nH]cn1)NC(=O)[C@H](Cc1c[nH]c2ccccc12)NC(=O)[C@H](CCCNC(=N)N)NC(=O)[C@H](CC(C)C)NC(=O)[C@H](CCCNC(=N)N)NC(=O)[C@H](Cc1c[nH]c2ccccc12)NC(=O)[C@H](CS)NC(=O)CCCCCNC(=O)CN1CCN(CC(=O)O)CCN(CC(=O)O)CCN(CC(=O)O)CC1)C(=O)O [copper-64 labelled]", "test": "ex vivo biodistribution", "test system": "male C57BL/6J mice, stomach", "conditions": "intravenous, 1.85 MBq, 18 h, B16-F10 tumour-bearing", "tissue uptake [%ID/g]": 1.2}
{"SMILES": "CC[C@H](C)[C@H](NC(=O)[C@H](CCCCN)NC(=O)CNC(=O)[C@H](CC(C)C)NC(=O)[C@H](Cc1ccccc1)NC(=O)[C@H](CCCCN)NC(=O)[C@H](CO)NC(=O)[C@H](Cc1ccccc1)NC(=O)[C@H](Cc1c[nH]c2ccccc12)NC(=O)[C@H](CCC(N)=O)NC(=O)[C@@H](NC(=O)[C@H](Cc1ccccc1)NC(=O)CCCCCNC(=O)CN1CCN(CC(=O)O)CCN(CC(=O)O)CCN(CC(=O)O)CC1)C(C)C)C(=O)N[C@@H](CCC(=O)O)C(=O)N1CCC[C@H]1C(=O)N[C@@H](CC(=O)O)C(=O)N[C@H](C(=O)N[C@@H](CO)C(=O)N[C@@H](CCC(N)=O)C(=O)N[C@H](C(=O)N[C@@H](CCC(N)=O)C(=O)N[C@@H](CC(=O)O)C(=O)N1CCC[C@H]1C(=O)N[C@@H](CC(N)=O)C(=O)N[C@@H](CC(=O)O)C(=O)N[C@@H](CCC(N)=O)C(=O)N[C@@H](Cc1ccc(O)cc1)C(=O)N[C@@H](CCC(=O)O)C(=O)N1CCC[C@H]1C(=O)N[C@@H](Cc1ccccc1)C(=O)O)C(C)C)C(C)C [copper-64 labelled]", "test system": "C57BL/6 mice, thymus", "conditions": "added: LPS 0.1 mg/kg intratracheal", "tissue uptake [%ID/g]": "1.22 ± 0.2"}
{"note": "A few entries again:"}
{"SMILES": "CC[C@H](C)[C@H](NC(=O)[C@H](CCCNC(=N)N)NC(=O)[C@H](CCCCN)NC(=O)[C@H](Cc1ccc(O)cc1)NC(=O)[C@H](CC(=O)O)NC(=O)[C@H](C)NC(=O)CNC(=O)CCOCCOCCOCCNC(=O)CN1CCN(CC(=O)O)CCN(CC(=O)O)CCN(CC(=O)O)CC1)C(=O)N[C@H](C(=O)N[C@H](C(=O)N[C@@H](CCCCN)C(=O)N[C@H](C(=O)N[C@@H](CC(N)=O)C(N)=O)C(C)C)C(C)C)[C@@H](C)O [copper-64 labelled]", "test": "ex vivo gamma counting", "test system": "C57BL/6J male mice, B16-F10 tumour, bone", "conditions": "intravenous, 1.85 MBq, 40 min", "tissue uptake [%ID/g]": "0.763 ± 0.086"}
